Measurements pooled from the literature.
A part holds a random share of what one study measured.

Block 1
Target: Histone acetyltransferase KAT6A, both winged helices, GST fusion (KAT6A, Homo sapiens, UniProt Q92794, residues 1-181)
Technique: protein binding microarray
Form: double-stranded DNA, one strand shown
Matrix: in vitro
Concentration: not given
Setting: 8-mer, flanks averaged, mean of 2 arrays, mostly near background
Reference: not given
Reading: higher = stronger binding
Target sequence (chain): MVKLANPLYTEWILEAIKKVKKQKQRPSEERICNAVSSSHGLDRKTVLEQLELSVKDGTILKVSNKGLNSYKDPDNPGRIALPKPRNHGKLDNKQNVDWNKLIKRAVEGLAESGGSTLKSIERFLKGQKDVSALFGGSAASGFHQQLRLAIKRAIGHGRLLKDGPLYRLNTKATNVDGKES
The E-score of `CATAGGAA` is reported as -0.133.
With `GTAGTGCA` the E-score was -0.031.
`CAGAACGG` gave an E-score of 0.013.
`CGCGTTTC` has an E-score of 0.314.
`CCCTGACA` gave an E-score of -0.263.
For `CTGCCGGA`, the E-score was 0.0813.
`CCTATAGC` gave an E-score of -0.0447.
With `ACAGTAGA` the E-score was -0.111.
For `CACTCAGG`, the E-score was -0.0503.
The E-score of `AACTAGTA` is reported as -0.0369.
The E-score of `GAATTACC` is reported as 0.0471.
The E-score of `ATAACTGG` is reported as -0.143.
With `AAGTAACC` the E-score was -0.129.
With `AACAGAAA` the E-score was -0.12.
With `GCCGCGGC` the E-score was 0.436.
`ACGCTAAG` gave an E-score of 0.0582.
With `CTATGAAC` the E-score was -0.0955.

Block 2
Target: Interferon regulatory factor 7, full length, phosphomimetic (IRF7, Homo sapiens, UniProt Q92985, residues 1-503, S471D/S472D/S475D/S476D/S477D/S483D/S484D/S487D)
Technique: protein-binding microarray
Form: double-stranded DNA, one strand shown
Matrix: in vitro
Concentration: 2200 nM top
Setting: 60-bp whole probe
With: salmon DNA 0.4 mg/ml
Reference: random background probes
Reading: higher = stronger binding
Constant ends, left off below: GCCTAGCAC … GTCTTGATTCGCTTGACGCTGCTG
Construct (chain): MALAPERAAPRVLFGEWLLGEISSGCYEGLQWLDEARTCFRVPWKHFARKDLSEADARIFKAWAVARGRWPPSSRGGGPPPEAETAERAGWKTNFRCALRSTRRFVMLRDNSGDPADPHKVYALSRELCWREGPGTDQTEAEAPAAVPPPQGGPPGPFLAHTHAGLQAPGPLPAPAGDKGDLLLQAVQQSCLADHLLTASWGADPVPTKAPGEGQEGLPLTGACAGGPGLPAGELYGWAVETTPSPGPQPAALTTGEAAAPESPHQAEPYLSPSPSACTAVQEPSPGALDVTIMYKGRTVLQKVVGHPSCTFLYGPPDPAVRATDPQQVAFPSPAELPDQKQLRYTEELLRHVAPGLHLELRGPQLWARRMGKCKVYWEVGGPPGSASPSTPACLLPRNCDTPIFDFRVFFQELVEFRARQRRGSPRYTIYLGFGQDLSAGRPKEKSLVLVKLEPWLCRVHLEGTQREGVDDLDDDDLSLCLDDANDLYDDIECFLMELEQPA
For `TTAGATTTCGGGACCGGATTAGTGCTA`, “fitted relative affinity” read 1.11 z-score.
Under “fitted relative affinity”, `GAAGGTTTCCTTTTCCTGACGTGCTAG` is recorded as 4.73 z-score.
`TTAGGTTTCGACACTGGGTTAGTGCTA`: “fitted relative affinity” 2.27 z-score.
`TTAGATTTCGGGTATCAATTAGTGCTA` — result for “fitted relative affinity”: 2.54 z-score.
`GACGAACTGAGTTCCGAGACGTGCTAG`: “fitted relative affinity” 0.0608 z-score.
`TTAGGTATCGGTATCGGTTTGTGCTAG`: “fitted relative affinity” 2.16 z-score.
`GACGGACTGCTTATCTTGACGTGCTAG`: “fitted relative affinity” 0.188 z-score.
`GACGGACTGTACTTTCGGGACGTGCTA` — result for “fitted relative affinity”: 3.95 z-score.
For `ATAAAAGAACTCCTGGGGGAGTGCTAG`, “fitted relative affinity” read -0.538 z-score.
`TCACATCTCTCTTAAATACTGTGCTAG`: “fitted relative affinity” 1.36 z-score.
`GACGAACTTAGTCTCGAGACGTGCTAG` — result for “fitted relative affinity”: 0.0688 z-score.
`GACGATCTCAGTTTCCAGACGTGCTAG`: “fitted relative affinity” 1.61 z-score.
`TTAGATATCAGTACCGATTAGTGCTAG`: “fitted relative affinity” 0.178 z-score.
`GACGAGCTGAGTCTCGAGACGTGCTAG`: “fitted relative affinity” -0.253 z-score.
`ACCCATCTCCAGTAGCCTAGCGTGCTA`: “fitted relative affinity” 0.697 z-score.
For `TTAGGTATCGGGCCTGGGTTAGTGCTA`, “fitted relative affinity” read -0.519 z-score.
`TGAAGACTCTCTTGTCTGGATGTGCTA`: “fitted relative affinity” -0.0962 z-score.
`GACGGGTTCGGTCTCGGGACGTGCTAG`: “fitted relative affinity” 0.265 z-score.
For `GATGGACTGGGACTGGGGACGTGCTAG`, “fitted relative affinity” read -0.601 z-score.

Block 3
Target: Ras GTPase-activating protein-binding protein 1, full length (G3BP1, Homo sapiens, UniProt Q13283)
UniProt Q13283, sequence (whole entry, looked up): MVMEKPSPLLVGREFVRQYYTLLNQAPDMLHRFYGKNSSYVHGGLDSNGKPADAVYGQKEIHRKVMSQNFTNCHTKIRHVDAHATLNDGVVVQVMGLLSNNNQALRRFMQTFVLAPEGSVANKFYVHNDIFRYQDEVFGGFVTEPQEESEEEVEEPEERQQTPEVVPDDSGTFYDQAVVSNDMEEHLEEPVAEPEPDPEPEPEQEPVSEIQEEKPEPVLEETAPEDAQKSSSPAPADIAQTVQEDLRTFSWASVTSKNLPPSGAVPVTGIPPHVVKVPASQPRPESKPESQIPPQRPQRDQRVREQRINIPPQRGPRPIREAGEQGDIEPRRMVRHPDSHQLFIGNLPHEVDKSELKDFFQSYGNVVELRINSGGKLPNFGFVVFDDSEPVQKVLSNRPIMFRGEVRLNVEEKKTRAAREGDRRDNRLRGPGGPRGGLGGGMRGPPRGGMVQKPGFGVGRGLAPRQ
Technique: RNA Bind-n-Seq
Form: RNA
Matrix: in vitro
Concentration: 200 nM
Setting: whole 134-nt RNA, ends assumed
With: 150 mM LiCl
Reference: input library
Reading: higher = stronger binding
Library: 7-deaza-guanosine replaces G
Constant ends, left off below: GGGAGUUCUACAGUCCGACGAUC … UGGAAUUCUCGGGUGUCAAGG
With `UCCUGUGCUACACAUCGUAUGUACCGAAUCGGGUUUGGGAAAAAAAGGGUUUUUUUGGGAAAGUAUUAUGUUACGCCGUUCGGAUCUGCA` the log2 enrichment was -0.566.
With `UCCUCAAGUCCUGUGCUACACAUCGUAUGUACCGAAUCGGAGGGAGGGGAGGAAAGUAUUAUGUUACGCCGUUCGGAUCUGCACUUCCAG` the log2 enrichment was -0.0789.
`UCCUGUGCUACACAUCGUAUGUACCGAAUCAAAUUUUUUUAAACCCCCCCAAAUUUAAAAAAGUAUUAUGUUACGCCGUUCGGAUCUGCA` gave a log2 enrichment of 0.806.
With `CAAGUCCUGUGCUACACAUCGUAUGUACCGAAUCGGAAAAAAAGGAAAGGUUUGGAAAGUAUUAUGUUACGCCGUUCGGAUCUGCACUUC` the log2 enrichment was -2.25.
`UCAAGUCCUGUGCUACACAUCGUAUGUACCGAAUCGGGAAAGGAAAGGGAAAGGAAAGUAUUAUGUUACGCCGUUCGGAUCUGCACUUCC` has a log2 enrichment of -0.501.
For `AAGUCCUGUGCUACACAUCGUAUGUACCGAAUCGGGUUUUGGGUUUUGGUUUUGGGGAAAGUAUUAUGUUACGCCGUUCGGAUCUGCACU`, the log2 enrichment was -0.00175.
`GCAGGAAGUAAAAACAAAUGGAAAUGCUUCGGAUAGUGGCAGGGGUGGGGGUUGUUAAGGAAAGGGUGGGAUGGGAGUGGGUAAAGAGUU` gave a log2 enrichment of 0.296.
`GUCCUGUGCUACACAUCGUAUGUACCGAAUCGGGAAAAAGGGUUUUUGGGAAAAAGGGAAAGUAUUAUGUUACGCCGUUCGGAUCUGCAC` has a log2 enrichment of -1.34.

Block 4
Target: RING finger protein unkempt homolog, zinc fingers 1-6, SBP tag (UNK, Homo sapiens, UniProt Q9C0B0, residues 30-357)
UniProt Q9C0B0, sequence (30-357, looked up): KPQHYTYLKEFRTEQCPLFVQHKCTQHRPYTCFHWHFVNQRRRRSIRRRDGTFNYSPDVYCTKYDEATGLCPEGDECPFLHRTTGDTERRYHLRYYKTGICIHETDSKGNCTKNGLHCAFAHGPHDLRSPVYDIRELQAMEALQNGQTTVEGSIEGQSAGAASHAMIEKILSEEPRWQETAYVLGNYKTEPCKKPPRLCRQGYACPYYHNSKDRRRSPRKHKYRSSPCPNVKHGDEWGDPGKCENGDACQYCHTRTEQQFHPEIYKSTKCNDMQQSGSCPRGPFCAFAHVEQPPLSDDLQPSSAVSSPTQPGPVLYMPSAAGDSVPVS
Technique: RNA Bind-n-Seq
Form: RNA
Matrix: in vitro
Concentration: 100 nM
Setting: RNA with constant flanks, vertebrate orthologous sites, ends assumed
Reference: input RNA pool
Reading: higher = stronger binding
Constant ends, left off below: GGGAGUUCUACAGUCCGACGAUC … CAACAGAGGAUUGAGCAUCA
With `GAUUUGGGCCUUGGAACAGAACCAGGAGUUAGCAACAGUAAAAGUAAGCUUGUAAAAUUAUGGCCACAUGCAGCUGCACAACAUCAGUGCCAUCACUAACAACUGUAUUAGAGUAUUUAU` the bound/input enrichment was 1.42 ratio.
For `CCUGAAGCUUUGUGUUUGGCUGCACUGCGUAAGCUGCUACAAAUAGAAUAAAGAAUUUCAUAGCCCGAAUCUGCCAUUUAGAUGCAUGGAAAACGGGCUCUGCACAGUGGGUUUGGAGCU`, the bound/input enrichment was 0.559 ratio.
With `UUGAAGCUUUGUGUUUGGCUGCACCUGCAUAAGCUGCUACAAAUAGAAUAAAGAAUUUCAUAGCCUGUAUCUAUCGUUUAGAUGCAUGGAAAAUGGGCUUUGCACACGGUGGGUUUGGAG` the bound/input enrichment was 1.54 ratio.
`UUAUUUUCGAUCUCUUCCUCCCCUUCCUGAUUUUAAAAGCCCUUCUUUUUUUAGGCAUAUGUAGUAACAUUAGCAAAAAAGAUUUUAAUUUGGGCAACUUUGAUUCUUAAAACAGAAAAC` has a bound/input enrichment of 0.329 ratio.
For `CCUUAAUAUAGGGUAGUGUAUGUUUCAAAAAGGAAAAUCUGCAUAGUUUUGUUUGUCAUAUAGUAUUUUGGAAUUUGUAUAAUGAGGAUGUUUAGAAGCCAUAUGAAUGGCUUUUUUUAA`, the bound/input enrichment was 0.668 ratio.
The bound/input enrichment of `CAGCCGAUUCUCUCAUAGGGAGAGCUGCACACAUUGCUGUUCUUGAUUCAGAAAUAUUUUUAGAAAAGUUCUUUCUGGUUGCUGCCCUAAAAUAUUUCCAGUAGAAGAAAAGCAUUGUAA` is reported as 0.582 ratio.
`CUAGAGAGAGGUGACAUUUUCACAUAUCCGAAUAAAGAAAUGAAAUGCUGGAAGUCCUCUCGGGACUAAGUUUAAUUGGAGAGUUUAAAGAAGCCUCUCUUAGGUAAUUCUAAAACGAAA` gave a bound/input enrichment of 0.314 ratio.
`CCCAAAGGCCAAAUUCCCUCCUCCCUUCUACUGCUUCUACCAACUGGAAGCACCGAAAACUAGAAUUUCAUUUAUUUUGUUUUAAAAAAAACAUUGAUUUCUUGUAACACCCAAUAGGAA` has a bound/input enrichment of 1.39 ratio.

For quick reference, copied from above (block 1):
For `CTGCCGGA`, the E-score was 0.0813.
`CCTATAGC` gave an E-score of -0.0447.
With `ACAGTAGA` the E-score was -0.111.
For `CACTCAGG`, the E-score was -0.0503.
The E-score of `AACTAGTA` is reported as -0.0369.
The E-score of `GAATTACC` is reported as 0.0471.
The E-score of `ATAACTGG` is reported as -0.143.
With `AAGTAACC` the E-score was -0.129.
